Experimental data from different studies.
Protocols differ between the studies behind these lines. ± gives the spread as reported.

Chains of the proteins cited; added tags and fusions are not shown. Lines headed by an entry give the natural chain unless they say otherwise; changes in a name come on top. Residues count along the entry.
UniProt O94788, 27-518 limits assumed: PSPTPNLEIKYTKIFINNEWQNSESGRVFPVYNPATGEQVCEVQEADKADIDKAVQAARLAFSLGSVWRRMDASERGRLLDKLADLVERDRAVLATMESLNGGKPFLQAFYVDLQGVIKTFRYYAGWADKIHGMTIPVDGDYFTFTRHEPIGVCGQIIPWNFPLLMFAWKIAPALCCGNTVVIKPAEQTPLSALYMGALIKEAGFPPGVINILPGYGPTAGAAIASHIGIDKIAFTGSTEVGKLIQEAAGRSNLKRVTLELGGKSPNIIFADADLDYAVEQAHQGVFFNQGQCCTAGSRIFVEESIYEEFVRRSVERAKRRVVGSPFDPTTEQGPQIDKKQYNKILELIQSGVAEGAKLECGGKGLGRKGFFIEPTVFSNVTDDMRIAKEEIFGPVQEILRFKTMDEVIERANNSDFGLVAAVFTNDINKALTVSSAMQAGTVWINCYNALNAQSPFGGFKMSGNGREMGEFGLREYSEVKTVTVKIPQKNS
UniProt Q14790, 214-479 D374A/D384A/C409S/G418A/C433S limits assumed: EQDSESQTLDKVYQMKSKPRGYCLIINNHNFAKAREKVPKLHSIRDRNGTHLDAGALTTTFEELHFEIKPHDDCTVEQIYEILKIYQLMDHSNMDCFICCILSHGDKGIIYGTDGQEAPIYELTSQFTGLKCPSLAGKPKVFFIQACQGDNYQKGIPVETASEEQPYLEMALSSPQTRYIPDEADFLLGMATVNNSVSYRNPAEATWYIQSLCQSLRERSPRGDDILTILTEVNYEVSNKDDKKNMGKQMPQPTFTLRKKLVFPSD

O=C(c1ccc(Cl)c([N+](=O)[O-])c1)N1CCN(Cc2ccccc2)CC1  IC50 (Saccharomyces cerevisiae; cell growth, doubling time; wild type): > 200 µM
CC1(CNC(=O)c2ccc(C#Cc3ccccc3)cc2)NC(=O)NC1=O (centres unmarked)  logD (octanol/buffer; pH 11): 1.39
Cc1cc2c(-c3cncc(N)c3)cnc(N[C@@H]3CCNC[C@H]3OCC3CCS(=O)(=O)CC3)c2[nH]c1=O  logD (chromatographic; pH 7.4): 0.4
O=C(c1ccc(Cl)c([N+](=O)[O-])c1)N1CCN(c2ccccc2)CC1  IC50 (Saccharomyces cerevisiae; cell growth, doubling time; wild type): 33.2 ± 6.9 µM
CCOc1ccsc1C(=O)N1CCN(c2ccc([N+](=O)[O-])c(N3CCCC3)c2)CC1  ΔTm (Retinal dehydrogenase 2 (ALDH1A2, Homo sapiens, UniProt O94788); thermal stability, differential scanning fluorimetry; 200 µM, without NAD): 5 ± 0.03 °C
CC[C@H](C)[C@H](NC(=O)[C@H](C)NC(=O)[C@H](CCC(=O)O)NC(=O)[C@H](CCC(=O)O)NC(=O)[C@H](CC(C)C)NC(=O)[C@H](CCCCN)NC(=O)[C@H](CCCCN)NC(=O)[C@H](CCSC)NC(=O)[C@H](CCC(=O)O)NC(=O)[C@H](Cc1ccc(O)cc1)NC(=O)[C@H](CCC(=O)O)NC(=O)[C@H](CC(C)C)NC(=O)[C@H](CC(=O)O)NC(=O)[C@H](CC(C)C)NC(=O)[C@H](Cc1ccccc1)NC(=O)[C@H](Cc1ccc(O)cc1)NC(=O)[C@@H](NC(=O)[C@H](CC(N)=O)NC(=O)[C@@H](NC(=O)[C@H](CCC(N)=O)NC(=O)[C@H](CC(=O)O)NC(=O)[C@H](CC(C)C)NC(=O)[C@@H](N)CO)[C@@H](C)CC)C(C)C)C(=O)N[C@@H](CCCCN)C(=O)N[C@@H](CCCCN)C(=O)N[C@@H](CC(C)C)C(=O)N[C@@H](CCC(=O)O)C(=O)N[C@@H](CCC(=O)O)C(=O)N[C@@H](CO)C(=O)N[C@@H](Cc1ccc(O)cc1)C(=O)N[C@H](C(=O)N[C@@H](CC(=O)O)C(=O)N[C@@H](CC(C)C)C(=O)N[C@@H](CCCCN)C(=O)N[C@@H](CCC(=O)O)C(=O)N[C@@H](CC(C)C)C(=O)O)[C@@H](C)CC  IC50 (SARS-CoV-2 Alpha pseudovirus; pseudovirus infection, inhibitor, luciferase; Caco-2; 24 h): 0.623 µM
O=C(c1ccc(N2CCOCC2)cc1)N1CCC[C@@H](N(C(=O)CCl)c2ccccc2)C1  apparent IC50 ratio (Caspase-8 (CASP8, Homo sapiens, UniProt Q14790, C409S/C433S/D374A/D384A/G418A); competitive gel-based ABPP; relative to: G418A mutant over procaspase-8): 10 fold
Cc1ccccc1S(=O)(=O)Nc1cccc(C(=O)NC2CCN(c3ncnc4[nH]cnc34)CC2)c1  EC50 (SARS-CoV-2; viral replication; Wuhan-Hu-1): 2.41 µM

Some of these lines once more:
CC1(CNC(=O)c2ccc(C#Cc3ccccc3)cc2)NC(=O)NC1=O (centres unmarked)  logD (octanol/buffer; pH 11): 1.39
